Results pooled from the literature.
A part holds a random share of what one study measured.

Block 1
Target: Histone acetyltransferase KAT6A, winged helix 1, GST fusion (KAT6A, Homo sapiens, UniProt Q92794, residues 1-85)
Method: protein binding microarray
Molecule type: double-stranded DNA, one strand shown
Sample: in vitro
Tested at: not given
Notes: 8-mer, flanks averaged, mean of 2 arrays, mostly near background
Baseline: not given
Direction: higher = stronger binding
Residues (chain): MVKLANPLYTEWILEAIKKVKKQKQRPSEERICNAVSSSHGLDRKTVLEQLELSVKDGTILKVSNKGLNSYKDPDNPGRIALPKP
For `AAACCAAT`, the E-score was -0.143.
`TGAGTGCA` gave an E-score of -0.0932.
The E-score of `AATAATGA` is reported as -0.0311.
`CGCGATTA` gave an E-score of 0.0903.

Block 2
Target: Prothrombin, mature alpha-thrombin (F2, Homo sapiens, UniProt P00734)
Method: aptamer microarray, sandwich
Molecule type: DNA with 2'F-ANA
Sample: in vitro
Tested at: 200 nM
Notes: whole 15-mer aptamer, many near background
Added: Cy3 exosite-II aptamer, 400 nM
Direction: higher = stronger binding
Oligonucleotide: GGTTGGTGTGGTTGG
`2'F-ANA at 2 4 5 7 12 14 15`: “mean fluorescence intensity” 55.1 a.u.
`2'F-ANA at 2 3 4 7 8 12 13 14` — result for “mean fluorescence intensity”: 382 a.u.
`2'F-ANA at 1 3 7 8 12 14`: “mean fluorescence intensity” 179 a.u.
Under “mean fluorescence intensity”, `2'F-ANA at 3 7 11 12 13 15` is recorded as 1210 a.u.
For `2'F-ANA at 1 2 3 5 6 7 9 10 11 14`, “mean fluorescence intensity” read 67.8 a.u.
`2'F-ANA at 4 5 8 9 11 13`: “mean fluorescence intensity” 56.9 a.u.

Block 3
Target: Sal-like protein 4, full length isoform B (SALL4, Homo sapiens, UniProt Q9UJQ4-2, residues 1-616)
Method: universal PBM
Molecule type: double-stranded DNA, one strand shown
Sample: in vitro
Tested at: not given
Notes: 8-mer, flanks averaged, mean of replicates
Direction: higher = stronger binding
`CCCGATAA` gave an E-score of -0.0483.
With `ACTGCAGC` the E-score was -0.245.
`CTATTCTA` gave an E-score of 0.165.
With `CCCTCAAG` the E-score was -0.0223.
`CTACCAGA` has an E-score of -0.0743.
The E-score of `GGGGGGGA` is reported as -0.33.

Single results of other studies
For `PhoQ, residues 284 288 289 292 302 303 SLKLQV`, the fold induction was 8.9 (PhoP, residues 12 14 15 18 19 SMASL (Escherichia coli, UniProt P23836); Sort-seq, refers to: YFP reporter; E. coli; PhoQ-PhoP variant library, added: 10 µM Mg2+; baseline: high Mg2+ state, higher = stronger signaling).

Repeated from above (block 1):
The E-score of `AATAATGA` is reported as -0.0311.
`TGAGTGCA` gave an E-score of -0.0932.
